# Measurements of several laboratories.
# Compare with care: the assays were run in different laboratories. “And” joins repeats or separate records; there may be more than shown. Numbers after ± are the reported error.
SMILES,test,test system,conditions,scale,endpoint,value
COc1nc(NCc2cn(-c3ccc(C(=O)Nc4ccc(Br)cc4)cc3)nn2)nc(OC)n1,MTT,"normal colonocytes, rat",72 h,,maximum non-toxic concentration,33.9 ± 0.43 nM
Cc1cc([C@H]2C[C@H]3[C@@H](C)SC(N)=N[C@@]3(c3ccc(F)cc3F)CO2)on1,item: Aβx-42,"Mus musculus wild-type, brain","subcutaneous, 50 mg/kg, 18 h",,Aβ42 level,0.36 ng/g
COc1ncnn2ccc(-c3cnc4nc(C)n(Cc5nnc([C@@H](C)F)o5)c4c3)c12,,"Homo sapiens, relapsed or refractory AML or MDS","dose not given, splicing factor mutation-negative",,overall response rate,42.9%
NCC(=O)Nc1cncc(-c2nn3c(=O)cc(N4CCNCC4)nc3s2)c1,"ADP-induced platelet aggregation, light transmission aggregometry","human, stable CAD on aspirin, platelets ex vivo","subcutaneous, 0.075 mg/kg, 90 min post-dose, with: ADP 20 µM",,median inhibition,47.9%
Cn1cc(Nc2nccc(-c3ccc4c(c3)CN(C3COC3)CC[C@H]4NC(=O)c3cn(C(C)(C)C)nn3)n2)cn1,item: Valine Degradation I,"splenic B cells, Mus musculus","30 mg/kg, with: IgD activation","baseline: vehicle, direction not given",pathway activation z-score,1
N=C(N)NCCC[C@H](NC(=O)[C@H](CCCNC(=N)N)NC(=O)[C@H](CCCCN)NC(=O)[C@H](CCC(N)=O)NC(=O)[C@H](CCCCN)NC(=O)[C@H](Cc1ccc(O)cc1)NC(=O)[C@@H](N)CCCCN)C(=O)N[C@@H](CO)C(=O)N[C@@H](Cc1ccc(O)cc1)C(=O)N[C@@H](CCCCN)C(=O)O,,"human, dentin hypersensitivity patients","topical to tooth, 10 µg/tooth repeated, day 36, phase 1/2a trial, with: cold water stimulus",direction not given,median change in VAS score,-21.5 mm
COc1cc(Nc2ncc3c(n2)-c2ccc(Cl)cc2C(c2c(F)cccc2OC)=NC3)ccc1C(=O)O,,"mouse, KT-10 Wilms tumour xenograft","oral, 20.8 mg/kg, day 7",baseline: vehicle,relative tumour volume T/C,1
CC[C@@H](C)[C@@H](NC(=O)[C@@H](Cc1ccc(O)cc1)NC(=O)[C@H]1CCCN1C(=O)[C@@H](CCCNC(=N)N)NC(=O)[C@H](N)Cc1c[nH]cn1)C(=O)N[C@H](C)C(=O)N[C@H](Cc1c[nH]cn1)C(=O)N[C@H](CCCNC(=N)N)C(=O)N[C@@H](C(=O)N[C@H](Cc1ccc(O)cc1)C(=O)N[C@H](CO)C(=O)N[C@H](Cc1ccccc1)C(N)=O)C(C)C,ex vivo flow cytometry,"B16 tumour-bearing mice, spleen",dose not given,,IFN-γ+ CD8+ T cell frequency,8.63% and 6.31% and 7.33% and 6.26% and 4.61%
C[C@H]1C[C@H]2CSC(N)=N[C@@]2(c2nc(NC(=O)c3ccc(OC(F)F)cn3)cs2)CO1,item: total Aβ,"healthy adults, plasma","5 mg once daily, day 14",baseline: placebo,percent change from baseline,-37.4%
CC(CCc1ccc(O)cc1)NCCc1ccc(O)c(O)c1 (centres unmarked),,anaesthetised instrumented rat,"iv infusion, 1 µg/kg/min, 15 min, unit not given",baseline: baseline,dP/dtmax change,1290 ± 149
C[C@H]1O[C@@H](O[C@H]2CC[C@@]3(C)[C@@H](CC[C@]4(C)[C@@H]3C=C[C@]35OC[C@@]6(CCC(C)(C)C[C@H]63)[C@@H](O)C[C@]54C)[C@]2(C)CO)[C@H](O)[C@@H](O[C@@H]2O[C@H](CO)[C@@H](O)[C@H](O)[C@H]2O)[C@H]1O,Western blot,"ethanol-fed mice, liver","dose not given, -L dose",baseline: control mice,SIRT1 to β-actin ratio,0.514 fold change and 0.649 fold change and 0.608 fold change
CC1(C)CCC2(CC1)N[C@@H](C(=O)N[C@@H]1CC[C@@H](C(N)=O)OC1)[C@H](c1ccnc(Cl)c1F)[C@]21C(=O)Nc2cc(Cl)ccc21,,"human, solid tumours","90 mg/day, RECIST",baseline: patients,disease control rate,50%
OC(CCN1CCCCC1)(c1ccccc1)C1CC2C=CC1C2 (centres unmarked),resting-state EEG,healthy elderly humans,"oral, 2 mg, eyes open, LS mean",,"EEG theta power, O2 Pz",5.2 µV²
Clc1ccc(N/N=C(\c2ccccc2)c2ccccn2)nc1,western blot,"NOD/SCID mice, tumour cells",dose not given,,global H3K4me3 level,no effect
CC(C)(C)c1cc(C(C)(C)C(=O)O)c(O)cc1NC(=O)c1c[nH]c2ccccc2c1=O,,isolated rat colon,1 nM to 10 µM,,contraction AUC,no effect
Cc1ccc(C(=O)Nc2ccnc(S(N)(=O)=O)c2)c(N2CCCC(F)(F)CC2)n1,,"Macaca mulatta, C-nociceptors","intravenous, 0.6 mg/kg bolus then 0.8 mg/kg/h, 120 min",,activity-dependent slowing,73.7 % baseline
N#Cc1ccc2c(-c3ccncc3)c(-c3ccc(F)cc3)nn2c1,"kinase binding, competitor, MIB/MS competition, item: CMK2",Candida albicans cell lysate,10 µM,baseline: DMSO,log2 fold change,-0.0967
CCCCC1(CCCC)CN(c2ccccc2)c2cc(SC)c(OCC(=O)N[C@@H](C(=O)NCC(=O)O)c3ccccc3)cc2S(=O)(=O)C1,item: 7α-hydroxy-4-cholesten-3-one,"human, plasma","15 mg once daily, day 5",,plasma C4,70 ng/mL
CNC(=O)c1ccc(N2C(=S)N(c3ccc(C#N)c(C(F)(F)F)c3)C(=O)C2(C)C)cc1F,ELISA,"H22 tumour-bearing mice, tumour tissue",dose not given,,CXCL10 level,increased
N=C(N)NCCC[C@@H](NC(=O)CCOCCOCCNC(=O)[C@H](CCCCNC(=O)CC[C@H](NC(=O)c1ccc(NCc2cnc3nc(N)[nH]c(=O)c3n2)cc1)C(=O)O)NC(=O)CO/N=C/[C@H](F)[C@@H](O)[C@H](O)[C@H](O)CO)C(=O)NCC(=O)N[C@H](CC(=O)O)C(N)=O [fluorine-18 labelled],,"nude mice, MDA-MB-231 xenograft, tumour","dose not given, 2.5 h, with: unlabelled RGD 200 µg",baseline: unblocked,reduction of tumour uptake,~55%
CC(C)NCC(O)c1ccc(O)c(O)c1 (centres unmarked),,"ventricular cardiomyocytes, C57BL/6 mouse","dose not given, 0.516 s",,sarcomere length,1.5 µm
CO[C@H]1CC[C@H](N2C(=O)CNc3ncc(-c4ccc(C(C)(C)O)nc4)nc32)CC1,flow cytometry,"stimulated B cells, human, blood","30 mg single dose, 5 h, mean",baseline: baseline,pS6RP change from baseline,-67.5%
N#Cc1ccn2c(-c3ccncc3)c(-c3ccc(F)cc3)nc2c1,"kinase binding, competitor, MIB/MS competition, item: RTK1",Candida albicans cell lysate,100 nM,baseline: DMSO,log2 fold change,0.0282
CN(C(=O)n1cnc(-c2ccc[n+]([O-])c2)c1)C1CCCCC1,,"rat, brain","10 mg/kg, 4 h",,peak PEA level,4.8 ± 0.5 nmol/g
Cc1cc(F)cc2c(CCC(=O)N[C@@H]3C(=O)NC[C@H]3O)c(-c3ccc(F)cc3)[nH]c12,,"APOL1 G2 mice, IFNγ-induced","30 mg/kg twice daily, day 12",,urine albumin/creatinine ratio,157 µg/mg and 124 µg/mg and 77 µg/mg and 1110 µg/mg and 593 µg/mg
Cc1cn(-c2cc(NC(=O)c3ccc(C)c(Nc4nccc(-c5cccnc5)n4)c3)cc(C(F)(F)F)c2)cn1,item: phospho-tau 181,"human, cerebrospinal fluid","dose not given, 6 months versus baseline, unit not given",baseline: placebo,median difference in change,-1.36
Cc1n[nH]c2ccc(-c3cc(OC[C@@H](N)Cc4ccccc4)cnc3-c3ccoc3)cc12,"kinase binding, competitor, MIB/MS competition, item: PBS2",Candida albicans cell lysate,1 µM,baseline: DMSO,log2 fold change,-0.0528
Oc1ccc(Br)cc1C=NCCN1CCOCC1,nitric oxide scavenging,,80 µM,,inhibition,15.6%
Cc1noc(C)c1-c1cc(C(O)(c2ccccn2)c2ccccn2)c2nc(C3CC3)[nH]c2c1,item: HEXIM1 expression,"human, peripheral blood","9 mg, day 8, 1604 study",,maximum induction,109%
CCN1CCN(Cc2ccc(Nc3ncc(F)c(-c4cc(F)c5nc6n(c5c4)[C@H](C)CCC6)n3)nc2)CC1,,human advanced solid tumours,"200 mg, phase Ia monotherapy RECIST 1.1",,disease control rate,100%
CC#CC(=O)N[C@H]1CCCN(c2c(F)cc(C(N)=O)c3[nH]c(C)c(C)c23)C1,,"healthy volunteers, multiple ascending dose, serum","0.3 mg once daily, day 21",,change from baseline in serum IgM,-8.1%
COC[C@@H](c1ccc(C(F)(F)F)cc1)N1CCN(C2(C)CCN(C(=O)c3c(C)ncnc3C)CC2)C[C@@H]1C,,"HIV-1 patients, plasma","15 mg, week 2",baseline: baseline,change in HIV-1 RNA,-1.18 log10 copies/mL
O=C(O)CNC(=O)Cc1ccccc1,,"ventricular cardiomyocytes, C57BL/6 mouse","dose not given, 0.356 s",,sarcomere length,1.72 µm
NC(=O)c1cnc2[nH]ccc2c1N[C@@H]1[C@@H]2CC3C[C@H]1C[C@@](O)(C3)C2,"flow cytometry, item: CD8+ effector T cells","Japanese healthy subjects, peripheral blood","oral, 30 mg twice daily, day 7",,change from baseline,-0.13%
Cc1cc([C@H]2C[C@H]3[C@@H](CF)SC(N)=N[C@@]3(c3ccc(F)cc3F)CO2)on1,item: Aβx-42,"Mus musculus wild-type, brain","subcutaneous, 100 mg/kg, 14 h",,Aβ42 level,0.71 ng/g
COc1ccc(-c2cncc(N[C@@H](C)c3cccc(NC(=O)c4cncc(C)c4)c3)n2)cc1OC,item: rno-miR-361-5p,"rat SU5416/hypoxia model, lung","dose not given, unit not given",baseline: SU5416/hypoxia vehicle,delta delta Ct,-0.0536
O=C(OC(C(F)(F)F)C(F)(F)F)N1CCN(Cc2cccc(Oc3ccccc3)c2)CC1,PET blocking study,"rhesus monkey, brain Pons","0.3 mg/kg, compound pretreatment, with: [18F]T-401 tracer",,k4,0.294 min⁻¹
C=CC(=O)Nc1cc(Nc2nccc(Nc3cc(Cl)c(F)cc3C(C)(C)O)n2)c(OC)cc1N1CC[C@@H](N(C)C)C1,,"human, EGFR exon20ins NSCLC","concentration not given, other subtypes",,disease control rate,83.3%
O=C(COc1ccc(Cl)cc1)NC12CC(c3nnc([C@H]4C[C@@H](OC(F)(F)F)C4)o3)(C1)C2,item: ATF4,"PBMC ex vivo stimulated, human ALS patients","100 mg, D28 predose",baseline: baseline,protein level change,-72.6%
CN(C)C(=O)Oc1cccc([N+](C)(C)C)c1,neuromuscular block reversal,rat,"dose not given, 8 (unit not given), with: cisatracurium",baseline: T1 twitch,train-of-four ratio,61
N#Cc1ccc2c(c1)[C@H]1CCCN(C(=O)c3ccc4[nH]cnc4c3)[C@H]1C2,item: FPG,human,"80 mg once daily, day 28, adjusted mean",,change from baseline,8 mg/dL
CN[C@@H]1COc2c(S(=O)(=O)NC(=O)Nc3c4c(cc5c3CCC5)CCC4)cnn2C1,item: IL-18,"human participants, whole blood ex vivo","450 mg single dose, 24 h, IL-18, circulating, adjusted for, with: LPS/ATP",baseline: baseline,inhibition,84.6%
CCN1[C@@H](C(=O)NC23CCC(C(=O)O)(CC2)CC3)[C@H](c2cccc(Cl)c2F)[C@]2(C(=O)Nc3cc(Cl)ccc32)C12CCCCC2,,"human, advanced solid tumours, TP53 mutant",dose not given,,median progression-free survival,2.3 months
c1ccc(-c2n[nH]cc2-c2ccnc3ccccc23)nc1,"kinase binding, competitor, MIB/MS competition, item: SHA3",Candida albicans cell lysate,100 nM,baseline: DMSO,log2 fold change,0.868
O=C(O)CCC(=O)O.[2H]C([2H])([2H])Oc1cc(C)c2[nH]ccc2c1CN1CC[C@@H](C2CC2)C[C@H]1c1ccc(C(=O)O)cc1,"alternative complement pathway activity, Wieslab ELISA","human, serum","100 mg twice daily, multiple ascending dose",,trough inhibition,> 90%
C[C@H](Oc1ccc(Br)cc1-c1ccon1)C(=O)O,handgrip dynamometry,healthy human males,"200 mg once daily, multiple doses",baseline: placebo,peak grip force,4.86 kg
Cc1cc(C)c(CNC(=O)c2cc(Cl)c3c(c2C)O[C@@](C)([C@H]2CC[C@H](N(C)C)CC2)O3)c(=O)[nH]1,,human relapsed/refractory PTCL,CR + PR + SD,,disease control,53.8%

# Repeated from above:
SMILES,test,test system,conditions,scale,endpoint,value
Cc1n[nH]c2ccc(-c3cc(OC[C@@H](N)Cc4ccccc4)cnc3-c3ccoc3)cc12,"kinase binding, competitor, MIB/MS competition, item: PBS2",Candida albicans cell lysate,1 µM,baseline: DMSO,log2 fold change,-0.0528
Oc1ccc(Br)cc1C=NCCN1CCOCC1,nitric oxide scavenging,,80 µM,,inhibition,15.6%
Cc1noc(C)c1-c1cc(C(O)(c2ccccn2)c2ccccn2)c2nc(C3CC3)[nH]c2c1,item: HEXIM1 expression,"human, peripheral blood","9 mg, day 8, 1604 study",,maximum induction,109%
